Experimental data collected from several papers.
Protocols differ between the studies behind these lines. ± gives the spread as reported.
HLA class I histocompatibility antigen, A alpha chain allele A*01:01: HLA class I histocompatibility antigen, A alpha chain, allele A*01:01 (Homo sapiens, UniProt P04439)
HLA class I histocompatibility antigen, A alpha chain allele A*02:01: HLA class I histocompatibility antigen, A alpha chain, allele A*02:01 (Homo sapiens, UniProt P04439)
HLA class I histocompatibility antigen, A alpha chain allele A*26:01: HLA class I histocompatibility antigen, A alpha chain, allele A*26:01 (Homo sapiens, UniProt P04439)
HLA class I histocompatibility antigen, A alpha chain allele A*24:02: HLA class I histocompatibility antigen, A alpha chain, allele A*24:02 (Homo sapiens, UniProt P04439)
Chain of UniProt P47989 (whole entry, looked up): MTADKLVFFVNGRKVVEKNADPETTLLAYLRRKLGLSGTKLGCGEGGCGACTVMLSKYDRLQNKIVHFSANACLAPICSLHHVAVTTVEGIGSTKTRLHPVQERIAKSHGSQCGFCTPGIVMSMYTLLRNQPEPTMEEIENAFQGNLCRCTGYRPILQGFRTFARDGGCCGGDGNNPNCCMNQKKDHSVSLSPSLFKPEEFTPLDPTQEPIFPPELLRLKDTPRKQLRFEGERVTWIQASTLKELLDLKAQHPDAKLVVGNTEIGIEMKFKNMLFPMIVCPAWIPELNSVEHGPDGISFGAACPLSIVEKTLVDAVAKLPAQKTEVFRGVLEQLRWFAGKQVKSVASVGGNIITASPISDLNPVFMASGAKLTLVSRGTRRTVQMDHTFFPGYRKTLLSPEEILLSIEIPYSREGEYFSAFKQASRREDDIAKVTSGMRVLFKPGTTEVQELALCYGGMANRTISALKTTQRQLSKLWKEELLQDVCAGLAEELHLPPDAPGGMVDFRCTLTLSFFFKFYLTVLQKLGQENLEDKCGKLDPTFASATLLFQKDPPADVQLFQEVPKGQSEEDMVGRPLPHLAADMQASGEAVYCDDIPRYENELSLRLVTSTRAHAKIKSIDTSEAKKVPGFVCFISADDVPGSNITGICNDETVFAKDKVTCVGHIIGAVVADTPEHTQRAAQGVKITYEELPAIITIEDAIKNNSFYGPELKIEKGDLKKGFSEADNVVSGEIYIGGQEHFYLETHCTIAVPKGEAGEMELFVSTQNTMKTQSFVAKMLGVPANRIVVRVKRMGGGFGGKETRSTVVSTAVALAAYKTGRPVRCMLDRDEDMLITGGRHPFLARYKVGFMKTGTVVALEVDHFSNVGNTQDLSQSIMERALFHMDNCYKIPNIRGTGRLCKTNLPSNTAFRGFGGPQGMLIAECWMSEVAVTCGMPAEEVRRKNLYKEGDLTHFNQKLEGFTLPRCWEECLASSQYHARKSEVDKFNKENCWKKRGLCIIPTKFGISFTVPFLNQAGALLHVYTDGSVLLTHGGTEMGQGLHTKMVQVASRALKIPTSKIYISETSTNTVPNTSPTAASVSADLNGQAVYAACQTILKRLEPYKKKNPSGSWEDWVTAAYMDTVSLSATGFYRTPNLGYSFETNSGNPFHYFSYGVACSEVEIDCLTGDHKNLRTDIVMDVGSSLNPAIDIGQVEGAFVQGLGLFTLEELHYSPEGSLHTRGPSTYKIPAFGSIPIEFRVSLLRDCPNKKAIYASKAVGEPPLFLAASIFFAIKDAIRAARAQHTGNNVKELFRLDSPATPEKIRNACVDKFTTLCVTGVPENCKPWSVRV
Chain of UniProt P20618 (whole entry, looked up): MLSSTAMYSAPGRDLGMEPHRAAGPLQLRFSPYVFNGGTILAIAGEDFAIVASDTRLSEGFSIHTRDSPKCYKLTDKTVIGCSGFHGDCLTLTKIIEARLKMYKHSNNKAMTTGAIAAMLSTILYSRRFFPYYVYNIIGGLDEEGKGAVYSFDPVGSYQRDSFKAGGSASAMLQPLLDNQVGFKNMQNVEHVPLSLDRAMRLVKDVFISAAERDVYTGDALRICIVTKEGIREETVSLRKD
Chain of UniProt P81947 (whole entry, looked up): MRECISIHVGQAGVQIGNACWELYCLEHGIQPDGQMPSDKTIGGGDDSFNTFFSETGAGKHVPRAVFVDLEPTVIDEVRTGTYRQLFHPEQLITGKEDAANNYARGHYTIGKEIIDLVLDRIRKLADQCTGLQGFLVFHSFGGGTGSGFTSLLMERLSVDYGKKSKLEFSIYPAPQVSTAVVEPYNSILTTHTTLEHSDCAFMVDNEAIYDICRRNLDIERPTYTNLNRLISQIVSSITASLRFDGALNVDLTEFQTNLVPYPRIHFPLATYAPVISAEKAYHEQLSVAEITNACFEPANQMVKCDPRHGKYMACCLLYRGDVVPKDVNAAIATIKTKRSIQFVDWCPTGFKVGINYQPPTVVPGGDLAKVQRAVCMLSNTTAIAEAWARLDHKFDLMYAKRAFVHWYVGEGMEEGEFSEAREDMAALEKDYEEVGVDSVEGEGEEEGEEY
Chain of UniProt Q9UBZ9 (whole entry, looked up): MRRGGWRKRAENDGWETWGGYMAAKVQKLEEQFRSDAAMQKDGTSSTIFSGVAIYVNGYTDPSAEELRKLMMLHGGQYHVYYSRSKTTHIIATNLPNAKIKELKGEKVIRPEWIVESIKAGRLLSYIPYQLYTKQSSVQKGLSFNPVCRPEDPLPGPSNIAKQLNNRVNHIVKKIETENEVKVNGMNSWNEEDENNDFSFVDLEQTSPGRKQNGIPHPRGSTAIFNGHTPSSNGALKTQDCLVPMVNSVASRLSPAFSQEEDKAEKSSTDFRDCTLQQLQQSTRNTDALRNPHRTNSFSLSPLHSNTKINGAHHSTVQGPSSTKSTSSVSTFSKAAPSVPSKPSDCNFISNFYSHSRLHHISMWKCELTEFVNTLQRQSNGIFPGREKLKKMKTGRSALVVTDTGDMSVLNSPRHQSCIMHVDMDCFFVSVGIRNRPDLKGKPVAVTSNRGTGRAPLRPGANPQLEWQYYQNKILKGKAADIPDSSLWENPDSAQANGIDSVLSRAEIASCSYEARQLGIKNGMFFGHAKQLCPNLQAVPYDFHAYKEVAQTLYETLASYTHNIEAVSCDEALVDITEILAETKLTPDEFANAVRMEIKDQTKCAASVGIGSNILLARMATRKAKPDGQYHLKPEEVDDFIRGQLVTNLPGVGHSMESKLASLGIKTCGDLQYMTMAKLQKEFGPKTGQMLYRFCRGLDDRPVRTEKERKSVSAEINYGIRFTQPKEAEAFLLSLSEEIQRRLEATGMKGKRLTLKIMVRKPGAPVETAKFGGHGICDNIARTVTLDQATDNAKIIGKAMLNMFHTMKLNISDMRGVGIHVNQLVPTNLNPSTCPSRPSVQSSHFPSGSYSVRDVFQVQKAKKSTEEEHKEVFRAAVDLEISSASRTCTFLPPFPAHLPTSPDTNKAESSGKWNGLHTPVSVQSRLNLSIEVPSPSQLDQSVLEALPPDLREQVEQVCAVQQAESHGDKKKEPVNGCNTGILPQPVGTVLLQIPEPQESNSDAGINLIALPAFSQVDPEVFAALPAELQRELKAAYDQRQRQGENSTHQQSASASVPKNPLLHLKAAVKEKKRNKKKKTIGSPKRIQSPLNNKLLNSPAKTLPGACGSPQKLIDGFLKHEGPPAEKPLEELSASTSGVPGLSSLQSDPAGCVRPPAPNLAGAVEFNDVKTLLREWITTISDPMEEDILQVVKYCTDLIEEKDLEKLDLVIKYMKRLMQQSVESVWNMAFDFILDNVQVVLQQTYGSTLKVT
Chain of UniProt P28074 (whole entry, looked up): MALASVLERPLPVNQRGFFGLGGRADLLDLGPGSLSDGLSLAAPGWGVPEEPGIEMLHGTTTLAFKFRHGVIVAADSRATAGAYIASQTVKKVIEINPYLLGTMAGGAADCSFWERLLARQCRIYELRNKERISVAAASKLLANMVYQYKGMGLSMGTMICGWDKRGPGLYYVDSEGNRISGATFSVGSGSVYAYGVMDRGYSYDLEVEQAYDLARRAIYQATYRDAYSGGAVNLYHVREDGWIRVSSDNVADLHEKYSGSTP
Chain of UniProt P25100 (whole entry, looked up): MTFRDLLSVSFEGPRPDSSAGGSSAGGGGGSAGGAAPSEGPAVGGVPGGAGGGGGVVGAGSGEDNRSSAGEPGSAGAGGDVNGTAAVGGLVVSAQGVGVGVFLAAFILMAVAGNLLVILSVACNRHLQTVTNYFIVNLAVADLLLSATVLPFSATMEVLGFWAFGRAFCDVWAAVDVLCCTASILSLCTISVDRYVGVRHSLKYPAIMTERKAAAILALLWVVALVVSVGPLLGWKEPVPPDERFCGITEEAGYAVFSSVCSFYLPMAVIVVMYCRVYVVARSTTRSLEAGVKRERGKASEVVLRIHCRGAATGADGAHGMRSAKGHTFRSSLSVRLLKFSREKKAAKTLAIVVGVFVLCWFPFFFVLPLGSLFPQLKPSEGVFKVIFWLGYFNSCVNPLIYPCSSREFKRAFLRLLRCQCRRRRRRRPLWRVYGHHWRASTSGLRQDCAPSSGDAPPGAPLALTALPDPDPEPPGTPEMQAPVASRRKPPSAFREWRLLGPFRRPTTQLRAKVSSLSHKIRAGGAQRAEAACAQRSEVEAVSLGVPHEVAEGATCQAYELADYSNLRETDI
Chain of UniProt P09467 (whole entry, looked up): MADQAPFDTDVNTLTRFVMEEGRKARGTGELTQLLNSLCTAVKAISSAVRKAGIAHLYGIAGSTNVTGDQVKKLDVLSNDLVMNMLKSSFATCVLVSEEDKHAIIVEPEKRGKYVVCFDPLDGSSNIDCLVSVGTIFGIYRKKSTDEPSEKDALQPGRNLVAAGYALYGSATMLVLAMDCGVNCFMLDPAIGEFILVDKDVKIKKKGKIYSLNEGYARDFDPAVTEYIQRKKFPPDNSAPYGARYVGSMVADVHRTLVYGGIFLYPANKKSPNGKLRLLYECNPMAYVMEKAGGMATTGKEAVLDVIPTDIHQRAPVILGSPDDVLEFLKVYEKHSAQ
Chain of UniProt O75751 (whole entry, looked up): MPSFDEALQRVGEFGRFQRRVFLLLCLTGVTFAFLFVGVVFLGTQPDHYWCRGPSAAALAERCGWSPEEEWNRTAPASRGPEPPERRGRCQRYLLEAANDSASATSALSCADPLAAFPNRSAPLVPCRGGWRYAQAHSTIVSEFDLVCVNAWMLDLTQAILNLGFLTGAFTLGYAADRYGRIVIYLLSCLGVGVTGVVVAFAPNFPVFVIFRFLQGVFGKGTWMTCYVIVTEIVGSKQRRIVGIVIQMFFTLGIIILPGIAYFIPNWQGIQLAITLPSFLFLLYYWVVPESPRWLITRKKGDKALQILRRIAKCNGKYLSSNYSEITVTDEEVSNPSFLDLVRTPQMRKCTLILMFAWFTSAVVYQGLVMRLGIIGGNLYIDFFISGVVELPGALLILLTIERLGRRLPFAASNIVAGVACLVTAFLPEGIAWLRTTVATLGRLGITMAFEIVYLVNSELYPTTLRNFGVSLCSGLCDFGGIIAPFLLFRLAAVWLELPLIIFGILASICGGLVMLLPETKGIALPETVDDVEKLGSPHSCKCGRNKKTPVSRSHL

Structure (SMILES) | target | test | setting | IC50 [µM]
NCCOCC(=O)N1CCCC(C(=O)NCc2nc(-c3ccc(-c4ccc(F)cc4)cc3)cs2)C1 (centres unmarked) | PSMB1/PSMB5/PSMB3 (Homo sapiens, UniProt P20618+P28074+P49720) |  |  | > 30
CSCC[C@H](NC(=O)[C@@H](N)CCCCN)C(=O)N[C@@H](Cc1ccccc1)C(=O)N[C@@H](CC(=O)O)C(=O)N[C@@H](CCC(=O)O)C(=O)N[C@@H](Cc1ccccc1)C(=O)N[C@@H](Cc1c[nH]cn1)C(=O)N[C@H](C(=O)N[C@@H](Cc1ccc(O)cc1)C(=O)O)C(C)C | HLA class I histocompatibility antigen, A alpha chain allele A*01:01 | binding |  | 49.4
c1ccc2c(c1)OCC(C1=NCCN1)O2 (centres unmarked) | imidazoline I2 receptor, rat brain | radioligand binding |  | 0.007
Nc1c2c(nc3c1C(c1cccc([N+](=O)[O-])c1)c1ccc(OCC(=O)c4ccc(Cl)cc4)cc1O3)CCCC2 (centres unmarked) | Beta-secretase 1 (BACE1, Homo sapiens, UniProt P56817) | enzyme activity, inhibitor |  | 0.382
COc1ncccc1-c1cnn2ccc(N3CCN(C(=O)OC(C)C)CC3)nc12 | ADRA1D (Homo sapiens, UniProt P25100) | liability screen |  | > 30
CC[C@H](C)[C@H](NC(=O)[C@H](CC(C)C)NC(=O)CNC(=O)[C@H](CCCNC(=N)N)NC(=O)[C@H](CC(C)C)NC(=O)[C@@H](NC(=O)[C@H](CCSC)NC(=O)[C@@H]1CCCN1C(=O)CN)C(C)C)C(=O)N[C@H](C(=O)O)[C@@H](C)O | HLA class I histocompatibility antigen, A alpha chain allele A*02:01 | peptide-MHC binding, radioligand competition binding |  | 2
COc1cc(Nc2ncc(F)c(Nc3ccc4c(n3)NC(=O)C(C)(C)O4)n2)cc(OC)c1OC | Matrilysin (MMP7, Homo sapiens, UniProt P09237) |  | metalloproteinase-7 | > 10
C[C@H]1CN(c2n[nH]c3nc(N[C@H]4CC[C@H](NS(=O)(=O)CCC(F)(F)F)CC4)ncc23)CCO1 | Cysteine--tRNA ligase, cytoplasmic (Homo sapiens, UniProt P49589) | biochemical |  | ≥ 20
CCCc1cc(C(=O)OCC)c(NC(=O)c2cc(O)cc(O)c2)s1 | DNA repair protein REV1, C-terminal domain (Homo sapiens, UniProt Q9UBZ9) | REV1 C-terminal domain-RIR interaction, inhibitor, fluorescence polarization displacement |  | > 100
COc1ccc2cc3[n+](cc2c1OC)CCc1cc2c(cc1-3)OCO2 | uncharacterized protein (Drosophila suzukii, UniProt A0AB39ZGK5) | binding, bis-ANS competition fluorescence | pH 7.4, together with: bis-ANS | 12.6
CC[C@H](C)[C@H](NC(=O)[C@@H](N)CCCNC(=N)N)C(=O)N[C@@H](Cc1ccccc1)C(=O)NCC(=O)N[C@@H](Cc1c[nH]cn1)C(=O)N1CCC[C@H]1C(=O)N[C@@H](Cc1c[nH]cn1)C(=O)N[C@@H](CC(C)C)C(=O)N[C@@H](Cc1ccccc1)C(=O)O | HLA class I histocompatibility antigen, A alpha chain allele A*02:01 | binding |  | 8.48
CC(C)C[C@H](NC(=O)[C@@H](N)CCC(=O)O)C(=O)N1CCC[C@H]1C(=O)N[C@@H](CC(=O)O)C(=O)N[C@@H](CCC(=O)O)C(=O)N[C@@H](Cc1ccccc1)C(=O)N[C@H](C(=O)N[C@H](C(=O)N[C@H](C(=O)O)C(C)C)C(C)C)C(C)C | HLA class I histocompatibility antigen, A alpha chain allele A*26:01 | peptide-MHC binding, radioligand competition binding |  | 6.86
O=C1c2ccccc2C(c2ccccc2F)C(=O)N1O (centres unmarked) | Holliday junction resolvase (Fowlpox virus, UniProt Q9J546) |  |  | 0.293
NC(N)=NCCC[C@H](NC(=O)[C@@H]1CCCN1C(=O)[C@H](N)Cc1ccccc1)C(=O)CCl | Prothrombin (F2, Homo sapiens, UniProt P00734) | enzyme activity, inhibitor | together with: FP-biotin 1 µM | < 0.005
C=C/C=C\CC1=C(C)[C@@H](O[P@](=O)(Cc2ccc(Cl)cc2)Oc2ccc([N+](=O)[O-])cc2)CC1=O | GDSL lipase (GLIP, Tanacetum cinerariifolium, UniProt H6U1I8) |  |  | 0.126
CC[C@@H]1/C=C/C=C/C[C@H](C)[C@H](O)[C@](C)(O)C(=O)[C@H](C)[C@@H](O)[C@H](C)C(=O)[C@H](C)[C@@H](O)[C@H](C)/C=C/C(=O)O[C@H]2[C@@H](C)[C@@H](CC1)O[C@@]1(CC[C@@H](C)[C@@H](C[C@H](C)O)O1)[C@@H]2C | F-type ATP synthase, Macaca mulatta muscle | ATP hydrolysis, on-column membrane affinity chromatography | together with: ATP 3 mM | 0.0402 ± 0.0135
COc1cc(C2=CCCCc3c2ccc(OC)c3OC(=O)CCCCCN2C(=O)C=CC2=O)cc(OC)c1OC | Tubulin alpha-1B chain/TUBB2B (Bos taurus, UniProt P81947+Q6B856) | tubulin polymerization, inhibitor, turbidimetric | 20 min, 30 °C, together with: tubulin 10 µM | 3.8 ± 0.6
CC[C@H](C)[C@H](NC(=O)[C@@H]1CCCN1C(=O)[C@H](CO)NC(=O)[C@H](CCSC)NC(=O)[C@H](CCC(N)=O)NC(=O)[C@@H](N)CCCCN)C(=O)N[C@@H](Cc1c[nH]c2ccccc12)C(=O)N[C@H](C(=O)N[C@@H](Cc1ccc(O)cc1)C(=O)O)[C@@H](C)O | HLA class I histocompatibility antigen, A alpha chain allele A*24:02 | binding |  | 43.4
CC(C)C[C@H](NC(=O)[C@H](CCC(N)=O)NC(=O)[C@H](Cc1ccccc1)NC(=O)[C@H](C)NC(=O)[C@H](CCCCN)NC(=O)[C@H](CC(=O)O)NC(=O)[C@H](CCC(=O)O)NC(=O)[C@H](CC(C)C)NC(=O)[C@@H](N)CO)C(=O)O | HLA class I histocompatibility antigen, A alpha chain allele A*26:01 | peptide-MHC binding, radioligand competition binding |  | > 70
CSCC[C@H](NC(=O)[C@H](CC(C)C)NC(=O)[C@@H](N)CCCNC(=N)N)C(=O)N[C@@H](CC(=O)O)C(=O)N[C@@H](CCCCN)C(=O)N1CCC[C@H]1C(=O)N[C@@H](Cc1c[nH]cn1)C(=O)N[C@@H](CO)C(=O)N[C@@H](Cc1ccc(O)cc1)C(=O)O | HLA class I histocompatibility antigen, A alpha chain allele A*01:01 | binding |  | 34.8
CCCCC/C=C\C/C=C\C/C=C\C/C=C\CCCC(=O)C(F)(F)F | Faah (Rattus norvegicus, UniProt P97612) | inhibitor | together with: FP-biotin 1 µM | 3.98
CC[C@H](C)[C@H](NC(=O)[C@H](Cc1c[nH]cn1)NC(=O)CNC(=O)[C@H](Cc1ccc(O)cc1)NC(=O)[C@H](CCC(N)=O)NC(=O)[C@@H](N)Cc1c[nH]cn1)C(=O)N[C@@H](CC(C)C)C(=O)N[C@@H](CCC(N)=O)C(=O)N[C@@H](Cc1ccc(O)cc1)C(=O)O | HLA class I histocompatibility antigen, A alpha chain allele A*02:01 | binding |  | 16.6
CNC(C)Cc1ccc2nonc2c1 (centres unmarked) | SLC22A3 (Homo sapiens, UniProt O75751) |  |  | 2330 ± 889
CC(C)C[C@H](NC(=O)[C@@H](N)CCCCN)C(=O)N[C@@H](Cc1ccccc1)C(=O)N1CCC[C@H]1C(=O)N[C@@H](Cc1c[nH]cn1)C(=O)N[C@@H](Cc1ccccc1)C(=O)N[C@@H](Cc1ccc(O)cc1)C(=O)N[C@@H](CCCNC(=N)N)C(=O)N[C@@H](Cc1ccccc1)C(=O)O | HLA class I histocompatibility antigen, A alpha chain allele A*02:01 | binding |  | 0.889
O=c1c(O)c(-c2cc(O)c(O)c(O)c2)oc2cc(O)cc(O)c12 | XDH (Homo sapiens, UniProt P47989) | enzyme activity, inhibitor |  | > 75
CC[C@H](C)[C@H](NC(=O)[C@@H]1CCCN1C(=O)[C@H](Cc1c[nH]cn1)NC(=O)[C@H](CCCCN)NC(=O)[C@H](Cc1ccccc1)NC(=O)[C@H](CC(C)C)NC(=O)[C@@H](N)CCCCN)C(=O)N[C@@H](CCC(N)=O)C(=O)N[C@@H](CC(C)C)C(=O)O | HLA class I histocompatibility antigen, A alpha chain allele A*02:01 | binding |  | 0.022
Nc1ncnc2c1ncn2[C@@H]1O[C@H](COP(=O)(O)O)[C@@H](O)[C@H]1O | Fructose-1,6-bisphosphatase 1 (Homo sapiens, UniProt P09467) | enzyme activity, inhibitor |  | 7.97
OC[C@H]1O[C@@H](OCCc2ccccc2)[C@H](O)[C@@H](O)[C@H]1O | lacI (Escherichia coli, UniProt P03023) | IPTG binding, competitor, nitrocellulose filter binding | repressor 2 µM monomer, no operator DNA, pH 7.4, together with: [14C]IPTG 250 nM | 560
CC[C@H](C)[C@H](NC(=O)[C@H](Cc1c[nH]cn1)NC(=O)[C@H](CCCCN)NC(=O)[C@H](Cc1ccc(O)cc1)NC(=O)[C@@H](NC(=O)[C@@H](N)Cc1c[nH]cn1)C(C)C)C(=O)N[C@@H](CC(C)C)C(=O)N[C@H](C(=O)N[C@@H](Cc1ccccc1)C(=O)O)[C@@H](C)O | HLA class I histocompatibility antigen, A alpha chain allele A*24:02 | binding |  | 4.96

Excerpt of the above:
Structure (SMILES) | target | test | setting | IC50 [µM]
CC[C@H](C)[C@H](NC(=O)[C@@H]1CCCN1C(=O)[C@H](Cc1c[nH]cn1)NC(=O)[C@H](CCCCN)NC(=O)[C@H](Cc1ccccc1)NC(=O)[C@H](CC(C)C)NC(=O)[C@@H](N)CCCCN)C(=O)N[C@@H](CCC(N)=O)C(=O)N[C@@H](CC(C)C)C(=O)O | HLA class I histocompatibility antigen, A alpha chain allele A*02:01 | binding |  | 0.022
Nc1ncnc2c1ncn2[C@@H]1O[C@H](COP(=O)(O)O)[C@@H](O)[C@H]1O | Fructose-1,6-bisphosphatase 1 (Homo sapiens, UniProt P09467) | enzyme activity, inhibitor |  | 7.97
OC[C@H]1O[C@@H](OCCc2ccccc2)[C@H](O)[C@@H](O)[C@H]1O | lacI (Escherichia coli, UniProt P03023) | IPTG binding, competitor, nitrocellulose filter binding | repressor 2 µM monomer, no operator DNA, pH 7.4, together with: [14C]IPTG 250 nM | 560
